Results from different studies.
Numbered parts are unrelated; each lists some results of a single study.
UniProt P15056, sequence (whole entry, unmodified, looked up): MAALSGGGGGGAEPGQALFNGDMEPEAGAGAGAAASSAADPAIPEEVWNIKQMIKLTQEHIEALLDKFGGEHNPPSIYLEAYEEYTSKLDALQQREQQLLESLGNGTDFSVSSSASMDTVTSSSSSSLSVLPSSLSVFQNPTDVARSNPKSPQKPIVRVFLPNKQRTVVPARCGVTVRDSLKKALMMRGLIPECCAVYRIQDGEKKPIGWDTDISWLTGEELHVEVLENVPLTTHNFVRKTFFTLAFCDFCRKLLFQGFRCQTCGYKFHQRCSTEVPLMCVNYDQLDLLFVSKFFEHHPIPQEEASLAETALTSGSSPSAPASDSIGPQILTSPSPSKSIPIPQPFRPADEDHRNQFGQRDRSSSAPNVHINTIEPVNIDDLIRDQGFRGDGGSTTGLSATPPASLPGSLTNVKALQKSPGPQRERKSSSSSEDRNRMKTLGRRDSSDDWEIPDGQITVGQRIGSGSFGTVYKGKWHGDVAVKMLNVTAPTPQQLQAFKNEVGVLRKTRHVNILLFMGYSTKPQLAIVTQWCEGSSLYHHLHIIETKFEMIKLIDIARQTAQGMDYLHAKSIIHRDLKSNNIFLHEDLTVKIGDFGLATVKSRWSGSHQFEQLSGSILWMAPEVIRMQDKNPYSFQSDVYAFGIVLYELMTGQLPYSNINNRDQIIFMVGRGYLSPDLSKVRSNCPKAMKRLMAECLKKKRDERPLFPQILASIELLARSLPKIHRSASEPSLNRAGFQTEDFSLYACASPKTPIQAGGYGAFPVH
UniProt O15264, sequence (whole entry, looked up): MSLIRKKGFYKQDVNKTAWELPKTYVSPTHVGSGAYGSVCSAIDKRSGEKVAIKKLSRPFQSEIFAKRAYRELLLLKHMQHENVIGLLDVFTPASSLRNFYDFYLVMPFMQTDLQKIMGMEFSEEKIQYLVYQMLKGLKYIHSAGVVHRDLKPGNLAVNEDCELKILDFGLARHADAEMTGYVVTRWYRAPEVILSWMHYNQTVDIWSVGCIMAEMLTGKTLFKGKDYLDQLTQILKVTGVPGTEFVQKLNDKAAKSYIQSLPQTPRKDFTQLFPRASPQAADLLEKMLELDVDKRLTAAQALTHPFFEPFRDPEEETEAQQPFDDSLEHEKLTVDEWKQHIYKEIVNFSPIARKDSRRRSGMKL
UniProt Q9Y6M4, sequence (whole entry, looked up): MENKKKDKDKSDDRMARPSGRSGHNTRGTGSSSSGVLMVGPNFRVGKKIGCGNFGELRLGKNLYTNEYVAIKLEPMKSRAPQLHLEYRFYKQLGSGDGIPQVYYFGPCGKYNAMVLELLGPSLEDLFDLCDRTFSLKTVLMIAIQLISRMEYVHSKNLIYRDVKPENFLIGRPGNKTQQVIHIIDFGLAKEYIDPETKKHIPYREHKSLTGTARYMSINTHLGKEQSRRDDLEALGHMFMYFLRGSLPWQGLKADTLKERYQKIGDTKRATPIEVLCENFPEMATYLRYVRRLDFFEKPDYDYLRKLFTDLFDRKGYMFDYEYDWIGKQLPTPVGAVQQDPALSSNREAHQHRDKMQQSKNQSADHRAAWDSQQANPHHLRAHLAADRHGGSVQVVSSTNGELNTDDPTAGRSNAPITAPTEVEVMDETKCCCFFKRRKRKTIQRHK
UniProt Q02763, sequence (whole entry, looked up): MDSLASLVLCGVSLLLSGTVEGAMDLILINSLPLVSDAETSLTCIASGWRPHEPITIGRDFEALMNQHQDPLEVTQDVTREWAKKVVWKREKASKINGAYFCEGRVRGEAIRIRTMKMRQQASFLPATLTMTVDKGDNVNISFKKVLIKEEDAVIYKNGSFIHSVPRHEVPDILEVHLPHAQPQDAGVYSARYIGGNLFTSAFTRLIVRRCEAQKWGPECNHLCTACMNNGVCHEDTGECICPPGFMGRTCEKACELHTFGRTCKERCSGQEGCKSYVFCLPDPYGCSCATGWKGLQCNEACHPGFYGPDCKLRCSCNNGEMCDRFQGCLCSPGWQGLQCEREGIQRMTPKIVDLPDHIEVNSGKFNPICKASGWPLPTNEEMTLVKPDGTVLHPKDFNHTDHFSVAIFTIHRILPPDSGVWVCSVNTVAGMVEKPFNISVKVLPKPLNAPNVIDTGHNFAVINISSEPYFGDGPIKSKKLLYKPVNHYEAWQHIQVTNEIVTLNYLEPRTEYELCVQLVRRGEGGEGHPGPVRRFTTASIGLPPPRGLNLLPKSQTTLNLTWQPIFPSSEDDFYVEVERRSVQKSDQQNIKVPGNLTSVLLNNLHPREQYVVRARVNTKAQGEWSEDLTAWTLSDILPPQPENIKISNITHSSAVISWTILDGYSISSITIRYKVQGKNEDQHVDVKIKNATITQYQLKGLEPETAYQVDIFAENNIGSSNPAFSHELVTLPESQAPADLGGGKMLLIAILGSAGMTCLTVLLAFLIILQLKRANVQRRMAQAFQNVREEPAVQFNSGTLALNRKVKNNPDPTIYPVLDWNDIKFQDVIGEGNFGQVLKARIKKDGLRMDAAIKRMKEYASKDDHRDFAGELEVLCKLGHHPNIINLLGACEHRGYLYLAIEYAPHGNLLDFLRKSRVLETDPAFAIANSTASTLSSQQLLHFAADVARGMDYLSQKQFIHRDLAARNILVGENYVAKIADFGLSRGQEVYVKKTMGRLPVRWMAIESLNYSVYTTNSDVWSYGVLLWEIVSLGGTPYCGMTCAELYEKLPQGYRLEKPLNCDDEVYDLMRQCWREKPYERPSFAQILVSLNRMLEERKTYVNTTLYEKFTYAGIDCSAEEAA
UniProt Q8WTQ7, sequence (whole entry, looked up): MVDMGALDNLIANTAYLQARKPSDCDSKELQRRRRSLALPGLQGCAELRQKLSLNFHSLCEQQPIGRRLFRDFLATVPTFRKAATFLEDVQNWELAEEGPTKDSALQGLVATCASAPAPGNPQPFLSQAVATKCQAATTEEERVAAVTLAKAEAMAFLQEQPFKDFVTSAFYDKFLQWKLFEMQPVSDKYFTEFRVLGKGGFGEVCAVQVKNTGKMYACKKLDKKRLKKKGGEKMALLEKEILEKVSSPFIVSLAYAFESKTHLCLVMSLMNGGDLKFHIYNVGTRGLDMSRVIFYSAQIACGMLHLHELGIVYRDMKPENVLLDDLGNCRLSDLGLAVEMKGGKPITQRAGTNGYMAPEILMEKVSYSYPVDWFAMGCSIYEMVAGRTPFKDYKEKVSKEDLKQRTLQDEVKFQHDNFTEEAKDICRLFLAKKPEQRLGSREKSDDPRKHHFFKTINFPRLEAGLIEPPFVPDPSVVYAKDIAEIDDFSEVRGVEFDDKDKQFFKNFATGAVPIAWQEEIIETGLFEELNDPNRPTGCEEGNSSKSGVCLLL
UniProt Q8N4C8, sequence (whole entry, looked up): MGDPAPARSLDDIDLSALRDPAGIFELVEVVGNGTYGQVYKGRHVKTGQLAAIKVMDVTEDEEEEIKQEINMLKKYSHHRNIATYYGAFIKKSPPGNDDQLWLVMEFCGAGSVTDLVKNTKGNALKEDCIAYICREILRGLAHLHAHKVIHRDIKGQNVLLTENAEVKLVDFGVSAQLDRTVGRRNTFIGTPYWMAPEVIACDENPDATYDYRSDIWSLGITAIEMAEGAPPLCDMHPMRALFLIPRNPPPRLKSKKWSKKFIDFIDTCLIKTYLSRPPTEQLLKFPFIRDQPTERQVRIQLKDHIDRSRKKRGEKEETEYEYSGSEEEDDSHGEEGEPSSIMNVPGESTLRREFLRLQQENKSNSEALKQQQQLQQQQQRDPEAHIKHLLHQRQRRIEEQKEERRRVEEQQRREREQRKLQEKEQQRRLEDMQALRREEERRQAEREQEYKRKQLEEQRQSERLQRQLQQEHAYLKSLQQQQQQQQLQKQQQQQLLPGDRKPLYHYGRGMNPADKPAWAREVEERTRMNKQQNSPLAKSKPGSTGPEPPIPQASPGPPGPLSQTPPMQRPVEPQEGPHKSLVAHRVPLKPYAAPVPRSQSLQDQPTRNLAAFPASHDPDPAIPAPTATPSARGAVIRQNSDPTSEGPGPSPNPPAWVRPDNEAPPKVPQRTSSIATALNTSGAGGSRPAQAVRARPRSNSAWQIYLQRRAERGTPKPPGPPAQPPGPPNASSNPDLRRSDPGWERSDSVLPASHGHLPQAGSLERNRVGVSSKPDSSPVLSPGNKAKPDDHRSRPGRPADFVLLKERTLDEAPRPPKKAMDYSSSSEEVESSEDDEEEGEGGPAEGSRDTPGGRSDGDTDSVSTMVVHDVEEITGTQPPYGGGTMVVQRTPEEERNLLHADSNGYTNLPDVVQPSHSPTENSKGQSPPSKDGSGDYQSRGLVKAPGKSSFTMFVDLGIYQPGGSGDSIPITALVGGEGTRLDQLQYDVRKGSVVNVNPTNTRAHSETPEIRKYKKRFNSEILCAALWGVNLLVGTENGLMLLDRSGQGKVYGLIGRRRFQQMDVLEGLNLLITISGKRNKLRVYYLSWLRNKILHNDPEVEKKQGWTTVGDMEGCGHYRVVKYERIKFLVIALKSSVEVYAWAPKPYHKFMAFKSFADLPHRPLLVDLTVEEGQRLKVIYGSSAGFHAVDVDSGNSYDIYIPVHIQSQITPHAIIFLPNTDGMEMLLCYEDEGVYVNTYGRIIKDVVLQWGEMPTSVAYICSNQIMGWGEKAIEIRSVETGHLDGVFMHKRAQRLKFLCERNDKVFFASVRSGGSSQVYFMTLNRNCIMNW
UniProt P49137, sequence (whole entry, looked up): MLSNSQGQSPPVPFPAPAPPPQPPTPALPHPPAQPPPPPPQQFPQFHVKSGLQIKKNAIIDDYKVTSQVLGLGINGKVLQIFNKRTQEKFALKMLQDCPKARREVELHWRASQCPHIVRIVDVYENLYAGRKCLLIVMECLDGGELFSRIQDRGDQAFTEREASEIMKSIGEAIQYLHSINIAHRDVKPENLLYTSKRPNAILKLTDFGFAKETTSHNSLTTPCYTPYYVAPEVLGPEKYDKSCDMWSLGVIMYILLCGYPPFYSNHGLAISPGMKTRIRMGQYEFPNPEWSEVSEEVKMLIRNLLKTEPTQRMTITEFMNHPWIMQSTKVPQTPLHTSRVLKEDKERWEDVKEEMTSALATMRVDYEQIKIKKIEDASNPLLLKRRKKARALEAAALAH

Set 1
SMILES: N#CC(c1ccnc(NCCc2cccnc2)n1)c1nc2ccccc2s1 (stereo not shown)
Read-out: enzyme activity
Mode: inhibitor
Concentration: 0.5 µM
Reference: control
target	remaining activity
Tyrosine-protein kinase Mer (MERTK, Homo sapiens, UniProt Q12866)	88.9%
Activin receptor type-1B (ACVR1B, Homo sapiens, UniProt P36896)	97.1%
Casein kinase I isoform gamma-3 (CSNK1G3, Homo sapiens, UniProt Q9Y6M4)	87.1%
Fibroblast growth factor receptor 1 (FGFR1, Homo sapiens, UniProt P11362)	99%
Wee1-like protein kinase (WEE1, Homo sapiens, UniProt P30291)	88.5%
Angiopoietin-1 receptor (TEK, Homo sapiens, UniProt Q02763)	97.5%
Serine/threonine-protein kinase Nek1 (NEK1, Homo sapiens, UniProt Q96PY6)	70%
Rhodopsin kinase GRK7 (GRK7, Homo sapiens, UniProt Q8WTQ7)	113%
Macrophage-stimulating protein receptor (MST1R, Homo sapiens, UniProt Q04912)	93.5%
MAP kinase-activated protein kinase 2 (MAPKAPK2, Homo sapiens, UniProt P49137)	97.8%
Glycogen synthase kinase-3 beta (GSK3B, Homo sapiens, UniProt P49841)	6.2%
Tyrosine-protein kinase FRK (FRK, Homo sapiens, UniProt P42685)	97.5%
Serine/threonine-protein kinase TBK1 (TBK1, Homo sapiens, UniProt Q9UHD2)	100%
Serine/threonine-protein kinase ULK2 (ULK2, Homo sapiens, UniProt Q8IYT8)	116%

Set 2
SMILES: COc1cccc(CNC(=O)c2nc3scc(COCc4ccc(C(=O)O)cc4)c3c(=O)[nH]2)c1
Read-out: cell-free assay
Technique: competition with immobilised ligand
Concentration: 1 µM
target	remaining binding [%]
Protein-tyrosine kinase 6 (PTK6, Homo sapiens, UniProt Q13882)	82.5
Vascular endothelial growth factor receptor 3 (FLT4, Homo sapiens, UniProt P35916)	100
Serine/threonine-protein kinase B-raf (BRAF, Homo sapiens, UniProt P15056, V600E)	79.8

Set 3
Cell line: HaCaT
Concentration: 100 µM
Time: 36 h
SMILES	viability
Cc1ccc(C(=O)Nc2ccc(S(=O)(=O)O)c3cc(S(=O)(=O)O)cc(S(=O)(=O)O)c23)cc1NC(=O)c1cccc(NC(=O)Nc2cccc(C(=O)Nc3cc(C(=O)Nc4ccc(S(=O)(=O)O)c5cc(S(=O)(=O)O)cc(S(=O)(=O)O)c45)ccc3C)c2)c1	78.1%
CC(=O)[C@@]1(O)CC[C@H]2[C@@H]3C[C@H](C)C4=CC(=O)C=C[C@]4(C)[C@@]3(F)[C@@H](O)C[C@@]21C	87.2%
CC1(C)O[C@@H]2C[C@H]3[C@@H]4C[C@H](F)C5=CC(=O)C=C[C@]5(C)[C@@]4(F)[C@@H](O)C[C@]3(C)[C@]2(C(=O)CO)O1	87%
NC(=O)CCCCC1CCSS1 (stereo not shown)	108%
COc1ccc(C(=O)NCc2ccc(OCCN(C)C)cc2)cc1OC	45.5%

Set 4
Structure (SMILES): CC(C)S(=O)(=O)c1ccc2nccc(Nc3ccc4sc(C5CCCC5)nc4c3)c2c1.Cl
Read-out: kinase activity
Mode: inhibitor
Concentration: 1 µM
target	remaining activity [%]
Protein kinase C eta type (PRKCH, Homo sapiens, UniProt P24723)	84
Misshapen-like kinase 1 (MINK1, Homo sapiens, UniProt Q8N4C8)	95
Serine/threonine-protein kinase ULK3 (ULK3, Homo sapiens, UniProt Q6PHR2)	100
Mitogen-activated protein kinase 13 (MAPK13, Homo sapiens, UniProt O15264)	98
Serine/threonine-protein kinase PAK 3 (PAK3, Homo sapiens, UniProt O75914)	95

Set 5
Target: Diamine acetyltransferase 1 (Homo sapiens, UniProt P21673)
Mode: inhibitor
Concentration: 10 µM
Reference: control
Target sequence (P21673 1-171): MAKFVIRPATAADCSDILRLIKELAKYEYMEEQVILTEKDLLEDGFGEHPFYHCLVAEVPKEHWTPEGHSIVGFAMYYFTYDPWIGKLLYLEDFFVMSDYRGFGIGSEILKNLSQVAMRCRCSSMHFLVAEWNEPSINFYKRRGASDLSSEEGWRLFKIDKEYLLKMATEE
SMILES	remaining activity [%]
COc1cc(C=O)cc(OC)c1O	89.3
CC(C)C[C@H](N)C(=O)O	102
CC(C)=CCC/C(C)=C/CC/C(C)=C/CC/C(C)=C/CO	104
CC[C@H](/C=C/[C@@H](C)[C@H]1CC[C@H]2C3=CC[C@H]4C[C@@H](O)CC[C@]4(C)[C@H]3CC[C@]12C)C(C)C	104

Some of these lines once more (set 1):
target	remaining activity
Glycogen synthase kinase-3 beta (GSK3B, Homo sapiens, UniProt P49841)	6.2%
Tyrosine-protein kinase FRK (FRK, Homo sapiens, UniProt P42685)	97.5%
Serine/threonine-protein kinase TBK1 (TBK1, Homo sapiens, UniProt Q9UHD2)	100%
Serine/threonine-protein kinase ULK2 (ULK2, Homo sapiens, UniProt Q8IYT8)	116%
